Measurements from different studies.
Compare with care: the assays were run in different laboratories. Several values in a cell are separate wells, animals, samples, runs or records. ± marks the error that the study gave.
GUK1: GUK1 (Homo sapiens, UniProt Q16774)
TOP2A: DNA topoisomerase 2-alpha (TOP2A, Homo sapiens, UniProt P11388)

Nc1ncnc2c1ncn2[C@@H]1O[C@H](COP(=O)(O)CP(=O)(O)OP(=O)(O)O)[C@@H](O)[C@H]1O — calcium influx (P2X purinoceptor 1 (P2RX1, Homo sapiens, UniProt P51575, K140A); calcium influx; 31.6 nM; relative to: ionomycin response): 1.03% and 0% and 6.81% and 0.489%
CN(C)C(=O)C(CCN1CCC(O)(c2ccc(Cl)cc2)CC1)(c1ccccc1)c1ccccc1 — normalized Gmax (Calcium-activated potassium channel subunit alpha-1, with LRRC26 γ1 subunit (KCNMA1, Homo sapiens, UniProt Q12791); BK current, inhibitor, inside-out patch clamp; excised membrane patch; 30 µM, γ1 subunit coexpressed, added: nominally 0 Ca2+ cytosolic; relative to: without loperamide): 0.114
Nc1ncnc2c1ncn2[C@@H]1O[C@H](CO[P@](=O)(O)O[P@](=O)(O)O[P@@](=O)(O)S)[C@@H](O)[C@H]1O — ΔH (GUK1; ITC; molar ratio 0.4975): -1.54 kcal/mol
O=C(O)c1ccc(Nc2ncc3c(n2)-c2ccc(Cl)cc2C(c2c(F)cccc2F)=NC3)cc1 — remaining activity (human WNK3(h); kinase activity; 1 µM): 88%
CCN(CCO)CCCC(C)Nc1ccnc2cc(Cl)ccc12 (stereo not drawn) — half-inactivation voltage (V1/2) (SCN5A (Homo sapiens, UniProt Q14524); sodium current, whole-cell patch clamp; 30 µM, without ATX-II): -78.1 mV and -93.7 mV and -86.7 mV
O=c1nc(SCc2cc(F)cc(C(F)(F)F)c2)nc(SCc2ccc3nc(Cl)ccc3c2)[nH]1 — mean decatenated DNA (TOP2A; decatenation; 125 µM): 0%
O=C(O)C1CCCNC1 (stereo not drawn) — normalised MST signal (SLC6A6 (Homo sapiens, UniProt P31641, G62A); binding, microscale thermophoresis; 1.95 µM, room temperature, added: 50 nM labelled protein; higher = more binding): 0.0669
Nc1nc2c(ncn2[C@@H]2O[C@H](COP(=O)(O)O)[C@@H](O)[C@H]2O)c(=O)[nH]1 — reaction rate (GUK1; enzyme activity, NADH-coupled; 2000 µM): 41.1 s⁻¹ and 38.9 s⁻¹ and 42.6 s⁻¹
CC[C@@H]1[C@H](F)C(=O)N[C@@H]1COc1nccc2cc(C(N)=O)c(OC)cc12 — inhibition (CSNK1G2 (Homo sapiens, UniProt P78368); ATP-site probe binding, ActivX profiling; THP-1 cell lysate; 0.2 mM, Lys2 site): 67%
C=CC(=O)N1CCC(C(=O)NCC(=O)N2CCN(c3nc(-c4cnc(N)nc4C(F)F)nc(N4CCOCC4)n3)CC2)CC1 — remaining binding (BMPR2 (Homo sapiens, UniProt Q13873); KINOMEscan; 1 µM): 71%
COc1cc(-c2cncc3c2CN(C)Cc2cc(N4CCNCC4)ccc2-3)cc(OC)c1OC — remaining activity (STK38 (Homo sapiens, UniProt Q15208); kinase activity; 1 µM, human enzyme, added: ATP 10 µM; relative to: DMSO control): 118%
COc1cc(O)c2c(c1)oc(=O)c1c3cc(O)c(O)cc3oc21 — α-Helix content (MAL12 (Saccharomyces cerevisiae S288c, UniProt P53341); circular dichroism; molar ratio 1:2): 20.1%
O=c1nc(SCc2cc(F)cc(C(F)(F)F)c2)nc(SCc2ccc3sccc3c2)[nH]1 — ATP hydrolysis rate (TOP2A; ATPase activity; 7.8 µM, added: ATP 1 mM): 1.86 µM/min and 0.975 µM/min
CO[C@H]1O[C@H](COS(=O)(=O)O)[C@@H](O[C@@H]2O[C@@H](C(=O)O)[C@@H](O[C@H]3O[C@H](COS(=O)(=O)O)[C@@H](O[C@@H]4O[C@H](C(=O)O)[C@@H](O[C@H]5O[C@H](COS(=O)(=O)O)[C@@H](O)[C@H](O)[C@H]5NS(=O)(=O)O)[C@H](O)[C@H]4O)[C@H](OS(=O)(=O)O)[C@H]3NS(=O)(=O)O)[C@H](O)[C@H]2OS(=O)(=O)O)[C@H](O)[C@H]1NS(=O)(=O)O — salt-independent binding energy (Beta-2-glycoprotein 1, domain V (APOH, Homo sapiens, UniProt P02749, V266L); ITC salt dependence): -3.8 kcal/mol
OC[C@H]1OC(O)[C@H](O)[C@@H](O)[C@@H]1O (stereo partly drawn) — kcat (Hexokinase-3 (HK3, Homo sapiens, UniProt P52790, R480W); substrate inhibition; mutant R480W, partial substrate inhibition model, added: ATP 20 mM): 38 ± 5 s⁻¹
NCCS(=O)(=O)O — normalised MST signal (SLC6A6 (Homo sapiens, UniProt P31641, Y138A); binding, microscale thermophoresis; 1 mM, room temperature, added: 50 nM labelled protein; higher = more binding): 0.0116
C=CC(=O)N1CCC(COCC(=O)N2CCN(c3nc(-c4cnc(N)nc4C(F)F)nc(N4CCOC[C@@H]4C)n3)CC2)CC1 — remaining binding (IRAK3 (Homo sapiens, UniProt Q9Y616); KINOMEscan; 1 µM): 97%
O=S(=O)(O)C(O)c1ccccn1 (stereo not drawn) — Vmax decrease (GLO2 (Arabidopsis thaliana, UniProt Q9LRS0); mixed inhibitor, o-dianisidine coupled; 0.05 µM, added: glycolate 0.1-5 mM): 70%
CCC1(O)CCCN(C(=O)c2ccc(-c3ccc(F)c(NC(=O)CCl)c3)cc2)C1 (stereo not drawn) — unmodified protein (DNA dC->dU-editing enzyme APOBEC-3B, C-terminal domain (Homo sapiens, UniProt Q9UH17); covalent modifier, intact protein mass spectrometry; 125 µM, 3 h, 5-fold molar excess): 28% and 19%
CN(C)C(=O)c1cc2cnc(Nc3ccc(-c4ccc5c(=O)cc(N6CCOCC6)oc5c4)cc3)nc2n1C1CCCC1 — remaining binding (Cyclin-dependent kinase 4, with cyclin D1 (CDK4, Homo sapiens, UniProt P11802); KINOMEscan binding; 1.0 µM; relative to: control): 2.6%
Nc1ncnc2c1ncn2C1CCCC1 — fold increase in apparent Kd (Inositol-tetrakisphosphate 1-kinase (Homo sapiens, UniProt Q13572); binding, microscale thermophoresis; highest compound concentration, added: increasing ATP; relative to: no ATP): ~40 fold
N[C@@H](Cc1ccccc1)C(=O)Nc1ccc2ccccc2c1 — Km (rat neuron-specific aminopeptidase; substrate): 20 µM
Cc1n[nH]c2ccc(-c3cc(OC[C@@H](N)Cc4ccccc4)cnc3-c3ccoc3)cc12 — log2 fold change (Negative regulator of the PHO system (PHO85, Candida albicans, UniProt Q9HGY5); kinase binding, competitor, MIB/MS competition, measured: PHO85; Candida albicans cell lysate; 100 nM; relative to: DMSO): 0.238
CC[C@@H](C)[C@@H](NC(=O)[C@@H](Cc1ccc(O)cc1)NC(=O)[C@H]1CCCN1C(=O)[C@@H](CCCNC(=N)N)NC(=O)[C@H](N)Cc1c[nH]cn1)C(=O)N[C@H](C)C(=O)N[C@H](Cc1c[nH]cn1)C(=O)N[C@H](CCCNC(=N)N)C(=O)N[C@@H](C(=O)N[C@H](Cc1ccc(O)cc1)C(=O)N[C@H](CO)C(=O)N[C@H](Cc1ccccc1)C(N)=O)C(C)C — surface TFRC expression (Transferrin receptor protein 1 (Tfrc, Mus musculus, UniProt Q62351); flow cytometry; RAW264.7; 24 h, pH 7.4, unit not given; relative to: 0 h): 0.963
COc1cc(-c2cc(C(C)=O)n3ccccc23)c(OC)cc1Cn1ccnc1 — ΔTm (Bromodomain-containing protein 3, BD1 (BRD3, Homo sapiens, UniProt Q15059)): 4 °C
CCN1CCN(c2cc(N3CCN(CC)CC3)nc(NCCNc3ccnc4cc(Cl)ccc34)n2)CC1 — activation (NR1D1 (Homo sapiens, UniProt P20393); reporter gene, Gal4 hybrid reporter; 20 µM; relative to: vehicle): 1.33 fold
OC1(c2ccc(Cl)cc2)CCN(Cc2c[nH]c3ccccc23)CC1 — inward current density (CatSper channel complex (Homo sapiens, UniProt Q7RTX7+Q86XQ3+Q8NEC5+Q96P56); ion current, whole-cell patch clamp; human sperm; 10 µM, at -80 mV): -5 ± 0.5 pA/pF
Nc1ccc(C(=O)O)cc1 — current density (BEST1, with wild-type BEST1 (Homo sapiens, UniProt O76090, Q293K); ion current, whole-cell patch clamp; HEK293 co-expressing mutant and wild-type; concentration not given, voltage -80 mV): -12.9 pA/pF and -11.6 pA/pF and -3.21 pA/pF and -9.56 pA/pF and -32.6 pA/pF and -9.46 pA/pF
CC(C)c1cccc2c(-c3ccccc3)cc(/C=C/c3ccc(C(=O)O)cc3)nc12 — IC50 (RARG (Homo sapiens, UniProt P13631); reporter gene, antagonist; up to 3300 nM, added: ATRA 8 nM (EC80)): inactive
CNCC(=O)O — remaining activity (Sodium- and chloride-dependent glycine transporter 2 (Homo sapiens, UniProt Q9Y345, S479G); glycine uptake, inhibitor, [3H]glycine uptake; 3000 µM, S479G mutant, log concentration 3, added: [3H]glycine; relative to: no inhibitor): 34.4%
O=C1CCC(N2C(=O)C=C(Nc3cccc(C4(NCCc5ccc(Cl)c(C(F)(F)F)c5)CCC4)c3)C2=O)C(=O)N1 (stereo not drawn) — Dmax (ZBTB11/CRBN (Homo sapiens, UniProt O95625+Q96SW2); protein degradation, degrader, HiBiT luminescence; MOLT-4): 72%
O=C(CCCc1ccccc1)C(=O)NCCc1ccc(Oc2ccc(C(F)(F)F)cn2)cc1 — probe-enriched protein abundance (Dpp4 (Mus musculus, UniProt P28843); inhibitor; mouse, BAT cytosol proteome; 10 µM; relative to: DMSO, lower = stronger inhibition): 2910 a.u. and 2460 a.u. and 2530 a.u.
NS(=O)(=O)c1ccc(NC(=O)Nc2ccc(F)cc2)cc1 — selectivity ratio (CA12 (Homo sapiens, UniProt O43570); stopped-flow CO2 hydration; relative to: Ki CA II over Ki CA XII): 213

A few entries again:
Nc1nc2c(ncn2[C@@H]2O[C@H](COP(=O)(O)O)[C@@H](O)[C@H]2O)c(=O)[nH]1 — reaction rate (GUK1; enzyme activity, NADH-coupled; 2000 µM): 41.1 s⁻¹ and 38.9 s⁻¹ and 42.6 s⁻¹
O=C1CCC(N2C(=O)C=C(Nc3cccc(C4(NCCc5ccc(Cl)c(C(F)(F)F)c5)CCC4)c3)C2=O)C(=O)N1 (stereo not drawn) — Dmax (ZBTB11/CRBN (Homo sapiens, UniProt O95625+Q96SW2); protein degradation, degrader, HiBiT luminescence; MOLT-4): 72%
NS(=O)(=O)c1ccc(NC(=O)Nc2ccc(F)cc2)cc1 — selectivity ratio (CA12 (Homo sapiens, UniProt O43570); stopped-flow CO2 hydration; relative to: Ki CA II over Ki CA XII): 213
O=C(O)C1CCCNC1 (stereo not drawn) — normalised MST signal (SLC6A6 (Homo sapiens, UniProt P31641, G62A); binding, microscale thermophoresis; 1.95 µM, room temperature, added: 50 nM labelled protein; higher = more binding): 0.0669
Cc1n[nH]c2ccc(-c3cc(OC[C@@H](N)Cc4ccccc4)cnc3-c3ccoc3)cc12 — log2 fold change (Negative regulator of the PHO system (PHO85, Candida albicans, UniProt Q9HGY5); kinase binding, competitor, MIB/MS competition, measured: PHO85; Candida albicans cell lysate; 100 nM; relative to: DMSO): 0.238
